Experimental data of several laboratories.
A part holds a random share of what one study measured. Positions count from the first letter of the parent shown.

Study 1 — method: protein-binding microarray; form: double-stranded DNA, one strand shown; matrix: in vitro; tested at: 250 nM; setting: 60-bp whole probe; together with: salmon DNA 0.4 mg/ml; reference: random background probes; direction: higher = stronger binding; shared flanks, not repeated: GCCTAGCAC … GTCTTGATTCGCTTGACGCTGCTG
Target: Interferon regulatory factor 5, full length, phosphomimetic (IRF5, Homo sapiens, UniProt Q13568-2, residues 1-514, K96S/S451D/S453D/S456D/S462D)
Strand	log fluorescence [z-score]
TTAGGTATCCTTTTCTTTTAGTGCTAG	0.883
TTAGGTATCCTTTTCCGTTAGTGCTAG	0.684
CACGGTATCCTTATCCTGACGTGCTAG	-0.0438
TTAGATTCCAGTTTCGGTTAGTGCTAG	10.6
TTAGGTTTTCTTATCCTTTAGTGCTAG	0.656
CTAGGACTGCTTTTCCTTTAGTGCTAG	-0.0329
TAAGGACTGCTACTGCTTTAGTGCTAG	-0.425
TTAGATTTCAGACGGGATTAGTGCTAG	0.307
GTTTGTCCCTATTTAAGATAGTGCTAG	0.354
TCATTTTTCTACTTCTGACTGTGCTAG	1.5
TTCGATCTCAGTATCGATTAGTGCTAG	6.81
GACGGTTGCGACTATCGGGACGTGCTA	1.45
GACGAACTGAGGCTCGAGACGTGCTAG	-0.313
TCATTTCTCTGCTCTTTTACTGTGCTA	1.85
TGAGGTTTCCTTATCCTTTAGTGCTAG	0.428
TCACCCCTCTCATTCCAACTGTGCTAG	0.187
CCACTTTTATTTTCAGTATTGTGCTAG	3.83
TCATTTTTTTTCATCATTGCGTGCTAG	1.51
GACGATTTCGGGTATCTAGACGTGCTA	4.19

Study 2 — method: protein binding microarray; form: double-stranded DNA, one strand shown; matrix: in vitro; tested at: not given; reference: not given; direction: higher = stronger binding
Target: Histone acetyltransferase KAT6A, both winged helices, GST fusion (KAT6A, Homo sapiens, UniProt Q92794, residues 1-181)
Setting: 8-mer, flanks averaged, mean of 2 arrays, mostly near background
Target sequence (chain): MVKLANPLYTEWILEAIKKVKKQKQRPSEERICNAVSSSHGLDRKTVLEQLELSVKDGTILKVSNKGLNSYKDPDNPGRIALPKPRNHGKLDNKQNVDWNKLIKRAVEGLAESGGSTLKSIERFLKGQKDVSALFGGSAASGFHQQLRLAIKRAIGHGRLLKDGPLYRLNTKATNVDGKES
Strand	E-score
ATCTAGTA	-0.014
ACGGCAGC	0.249
AGGGTGAT	-0.234
CCGGGGCC	0.0863
CCTTGACC	-0.0228
AGTCTGAG	-0.227
AAAGATAA	-0.044
GACGAGTC	-0.065
ACAGCGAG	0.0759
ATTAGCAA	-0.054
ACCCAGCG	0.118
GACAAAAC	-0.109
GAAGCACC	-0.185
CCCGATAC	0.0647
CCTTCGCA	0.000475
CACACCTG	-0.104
AGTGTAAG	-0.133
CGGTGGAG	0.00363
GCGGTCAC	0.199
AGTGAAGC	0.0404
GCCTCAAC	-0.165
GCCCACAA	-0.0761
AGACTGGC	-0.12
GCTTATTA	0.0204
GATTATCA	-0.0105

Study 3 — target: BATF, bZIP domain (human); method: DHFR protein complementation; matrix: yeast; reference: wild-type JUN-FOS pair; direction: higher = stronger binding
Setting: single substitutions, most at no-binding floor
Parent: JUN, bZIP domain (human); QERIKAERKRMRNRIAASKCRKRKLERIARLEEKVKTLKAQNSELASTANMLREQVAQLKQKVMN; partner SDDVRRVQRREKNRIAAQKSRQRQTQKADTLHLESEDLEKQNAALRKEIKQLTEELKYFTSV
Change	binding fitness [natural log]
I28L	0.0645
A57I	-0.206
E33R	-0.0884
Q55D	-0.34
A40E	0.0173
A40F	-0.0867
I28A	-0.0532
S43L	-0.0196
R30Y	-0.0129
T48F	-0.104
Q55V	-0.276
E33T	-0.193
A57P	-1.26
R30T	0.109
L38R	-0.592
A40H	-0.0353
M51K	0.0627
I28G	0.0626
M51S	0.0205

Study 4 — method: DHFR PCA, deep sequencing; matrix: yeast; together with: (+)-ABA 4.8 µM; reference: wild-type fitted maximum; direction: higher = stronger binding
Target: ABI1, truncated, D143A, DHFR fusion (Arabidopsis thaliana)
Setting: methotrexate growth selection, single substitutions
Parent: PYL1, truncated, DHFR fusion (Arabidopsis thaliana); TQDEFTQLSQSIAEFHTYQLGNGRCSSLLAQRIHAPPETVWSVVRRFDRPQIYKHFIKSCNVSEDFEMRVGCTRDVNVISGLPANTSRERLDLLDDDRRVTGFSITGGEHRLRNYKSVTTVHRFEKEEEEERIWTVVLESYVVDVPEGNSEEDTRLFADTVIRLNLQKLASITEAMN
Change	relative binding score [%]
T17R	43.6
I57E	0.835
F5E	56.5
T6G	77.1
L8N	24.8
F103P	-12.6
S27N	75.5
V44G	4.28
H110A	5.53
D95F	-2.94
E128A	74
A158S	18.7
D75V	85.4
P50C	-8.94

Study 5 — target: CCNE2, cyclin fold, Cln2 fusion (human); method: yeast growth competition, sequencing; matrix: yeast; setting: weak parent motif; reference: not given; direction: higher = stronger binding
Parent: CABLES2 docking peptide (human); ICAKRSLCAAFSV; partner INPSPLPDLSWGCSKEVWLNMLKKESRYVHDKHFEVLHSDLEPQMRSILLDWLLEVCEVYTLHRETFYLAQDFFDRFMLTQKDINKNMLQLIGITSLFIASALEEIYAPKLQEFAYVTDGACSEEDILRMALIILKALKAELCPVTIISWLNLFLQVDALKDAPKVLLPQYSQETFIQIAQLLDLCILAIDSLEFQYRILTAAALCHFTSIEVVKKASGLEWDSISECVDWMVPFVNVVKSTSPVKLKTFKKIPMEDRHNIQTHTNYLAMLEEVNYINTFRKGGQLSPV
Change	normalised enrichment score
ACAKRSLCAAFSV [I1A]	0.478
ICAKRSACAAFSV [L7A]	-0.0193
ICAARSLCAAFSV [K4A]	0.37
ICAKRSLCAAFSA [V13A]	0.906
ICAKRSLCAAFAV [S12A]	0.658

Some of these lines once more (study 4):
Change	relative binding score [%]
L8N	24.8
F103P	-12.6
S27N	75.5
V44G	4.28
H110A	5.53
D95F	-2.94
E128A	74
A158S	18.7
D75V	85.4
